Experimental data from different studies.
A part holds a random share of what one study measured.

Sample 1
Target: Histone acetyltransferase KAT6A, winged helix 2, GST fusion (KAT6A, Homo sapiens, UniProt Q92794, residues 85-181)
Method: protein binding microarray
Molecule type: double-stranded DNA, one strand shown
Matrix: in vitro
Tested at: not given
Setting: 8-mer, flanks averaged, mean of 2 arrays, mostly near background
Relative to: not given
Direction: higher = stronger binding
Endpoint: E-score
Construct (chain): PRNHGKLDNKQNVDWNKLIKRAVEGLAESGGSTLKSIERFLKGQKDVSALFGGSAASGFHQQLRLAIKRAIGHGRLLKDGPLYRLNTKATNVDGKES
Strand = ACTGAGTG; value = -0.0523
Strand = GTGGTAGA; value = -0.268
Strand = ATTCCGCC; value = 0.0861
Strand = GTGCATTA; value = 0.0918

Sample 2
Target: Interferon regulatory factor 7, full length, phosphomimetic (IRF7, Homo sapiens, UniProt Q92985, residues 1-503, S471D/S472D/S475D/S476D/S477D/S483D/S484D/S487D)
UniProt Q92985, sequence (whole entry, unmodified, looked up): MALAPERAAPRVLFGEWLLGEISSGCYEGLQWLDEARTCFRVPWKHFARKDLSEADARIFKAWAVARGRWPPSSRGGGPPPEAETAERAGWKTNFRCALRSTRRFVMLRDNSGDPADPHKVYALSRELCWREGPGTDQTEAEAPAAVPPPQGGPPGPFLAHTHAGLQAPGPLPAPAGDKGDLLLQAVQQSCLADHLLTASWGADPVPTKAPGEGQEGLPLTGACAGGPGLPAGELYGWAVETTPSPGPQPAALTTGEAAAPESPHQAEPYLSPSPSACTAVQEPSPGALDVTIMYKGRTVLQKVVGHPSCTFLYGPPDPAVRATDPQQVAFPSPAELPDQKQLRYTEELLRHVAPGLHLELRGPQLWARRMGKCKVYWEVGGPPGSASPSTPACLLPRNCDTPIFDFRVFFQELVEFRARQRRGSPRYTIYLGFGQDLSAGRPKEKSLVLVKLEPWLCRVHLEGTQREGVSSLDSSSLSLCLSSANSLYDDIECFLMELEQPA
Method: protein-binding microarray
Molecule type: double-stranded DNA, one strand shown
Matrix: in vitro
Tested at: 2200 nM top
Setting: 60-bp whole probe
With: salmon DNA 0.4 mg/ml
Relative to: random background probes
Direction: higher = stronger binding
Endpoint: fitted relative affinity
Strand = GCCTAGCACTCAATGATCTCTCTGGGACTGTGCTAGGTCTTGATTCGCTTGACGCTGCTG; value = 0.118 z-score
Strand = GCCTAGCACTCACAAAAATGATTGGTACTGTGCTAGGTCTTGATTCGCTTGACGCTGCTG; value = -0.262 z-score
Strand = GCCTAGCACTTATATTTCGGGACTGGATTAGTGCTAGTCTTGATTCGCTTGACGCTGCTG; value = 0.936 z-score

Single results of other studies
Substance = PhoQ, residues 284 288 289 292 302 303 SLCLSL; target = PhoP, residues 12 14 15 18 19 QYCSL (Escherichia coli, UniProt P23836); assay = Sort-seq, refers to: YFP reporter; test system = E. coli; setting = PhoQ-PhoP variant library, with: 10 µM Mg2+; scale = relative to: high Mg2+ state, higher = stronger signaling; endpoint = fold induction; value = 7
Substance = AAGACAU; target = PABPC1L2, full length, GST fusion (mouse, UniProt A0ABA7IW68); assay = RNAcompete; test system = RNA, in vitro; setting = 20 nM, 7-mer, probes averaged, single round; scale = relative to: mean of 7-mers, higher = stronger binding; endpoint = 7-mer Z-score; value = 0.468

Some of these lines once more (sample 1):
Strand = GTGGTAGA; value = -0.268
